Experimental data pooled from the literature.
A part holds a random share of what one study measured.

Sample 1 — technique: RNA Bind-n-Seq; molecule type: RNA; matrix: in vitro; concentration: 20 nM; setting: 6-mer, flanks averaged, single round; with: 150 mM KCl; baseline: input library; direction: higher = stronger binding
Target: TAR DNA-binding protein 43, full length, His tag (TARDBP, Homo sapiens, UniProt Q13148, residues 1-414)
Strand | 6-mer enrichment (R)
CAAGCU | 0.623
AUCAAA | 0.586
GGUACA | 1
GCGUCC | 0.85
GUGAGG | 3.74
UAAUCC | 0.569
AUAGGC | 0.824
GCAUGG | 1.83
CCGGGC | 1.85
GACGAA | 0.942

Sample 2 — technique: RNA Bind-n-Seq; molecule type: RNA; matrix: in vitro; concentration: 200 nM; setting: whole 134-nt RNA, ends assumed; with: 150 mM LiCl; baseline: input library; direction: higher = stronger binding; library: 7-deaza-guanosine replaces G
Target: Fragile X messenger ribonucleoprotein 1, C-terminal low-complexity region (Fmr1, Mus musculus, UniProt P35922)
Strand | log2 enrichment
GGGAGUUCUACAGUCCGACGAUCCAGCAGCAGAGUGAGUGGAUUUUAUUUUUCGUUAUUGUUGGUGGUUUAAAAAAUUCCCCCCAUGUAAUUAUUGUGAACACCUUGCUUUGUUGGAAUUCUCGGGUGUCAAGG | -0.609
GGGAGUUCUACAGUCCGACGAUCUUAGAAGAAUUUGGAAGGCCUUAAAUAUAGUAGCUUAGUUUGAAAAAUGUGAAGGACUUUCGUAACGGAAGUAAUUCAAGAUCAAGAGUAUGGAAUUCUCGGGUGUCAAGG | -3.6
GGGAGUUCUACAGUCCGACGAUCGUCCUGUGCUACACAUCGUAUGUACCGAAUCGGGUUUUUGGGUUUUUUUGGGAAAGGGAAAGUAUUAUGUUACGCCGUUCGGAUCUGCACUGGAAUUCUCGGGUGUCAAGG | -0.715
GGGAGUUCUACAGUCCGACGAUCACCAUGGAGGUGGGCAUCUUUGGGAAGUGGGGCAAGGGGGGGAUAGGGAGGGGGGUAACACUUUGGGAACAGGUGGUCCCAGGUCGUUUCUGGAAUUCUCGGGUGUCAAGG | 1.25
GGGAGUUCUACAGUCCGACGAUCUCAAGUCCUGUGCUACACAUCGUAUGUACCGAAUCGGUUUGGAAAAAGGUUUGGAAAGUAUUAUGUUACGCCGUUCGGAUCUGCACUUCCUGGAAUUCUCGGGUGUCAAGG | -2.15
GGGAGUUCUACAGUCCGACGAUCGAAGGAAGUAAAAACAAAUGGAAAUGCUUCGGAUAGUGGCAGGGGUGGGGGUUGCUAAGGAAAGGGUGGGAUGGGAGUGGGUAAAGAGUUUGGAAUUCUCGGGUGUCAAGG | 1.38
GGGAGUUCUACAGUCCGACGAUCCAAGUCCUGUGCUACACAUCGUAUGUACCGAAUCGGGGAAAGGGGUGGGGAGGGGAAAGUAUUAUGUUACGCCGUUCGGAUCUGCACUUCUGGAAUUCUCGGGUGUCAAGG | 0.0759
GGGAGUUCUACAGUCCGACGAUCCACAGACAACACGCACCCACACAGACACAGAGGGAAGGGGUUGGGAUGGGGACAGGGUGCACAGCAGGGCGGGGUAGAACCCCAGCCCCUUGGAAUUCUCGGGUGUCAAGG | -0.324
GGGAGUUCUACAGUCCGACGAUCAGUCCUGUGCUACACAUCGUAUGUACCGAAUCGGCCCCGGGGCCCCGGGCCCCGGGGAAAGUAUUAUGUUACGCCGUUCGGAUCUGCACUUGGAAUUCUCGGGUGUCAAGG | -3.56
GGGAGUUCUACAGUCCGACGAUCAGUCCUGUGCUACACAUCGUAUGUACCGAAUCGGAAAGGUUUUUUUGGUUUUUUUGGAAAGUAUUAUGUUACGCCGUUCGGAUCUGCACUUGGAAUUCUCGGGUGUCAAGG | -3.17

Sample 3 — technique: protein-binding microarray; molecule type: double-stranded DNA, one strand shown; matrix: in vitro; concentration: 250 nM; setting: 60-bp whole probe; with: salmon DNA 0.4 mg/ml; baseline: random background probes; direction: higher = stronger binding; all sequences stand within: GCCTAGCAC … GTCTTGATTCGCTTGACGCTGCTG
Target: Interferon regulatory factor 7, full length, phosphomimetic (IRF7, Homo sapiens, UniProt Q92985, residues 1-503, S101K/S471D/S472D/S475D/S476D/S477D/S483D/S484D/S487D)
Construct (chain): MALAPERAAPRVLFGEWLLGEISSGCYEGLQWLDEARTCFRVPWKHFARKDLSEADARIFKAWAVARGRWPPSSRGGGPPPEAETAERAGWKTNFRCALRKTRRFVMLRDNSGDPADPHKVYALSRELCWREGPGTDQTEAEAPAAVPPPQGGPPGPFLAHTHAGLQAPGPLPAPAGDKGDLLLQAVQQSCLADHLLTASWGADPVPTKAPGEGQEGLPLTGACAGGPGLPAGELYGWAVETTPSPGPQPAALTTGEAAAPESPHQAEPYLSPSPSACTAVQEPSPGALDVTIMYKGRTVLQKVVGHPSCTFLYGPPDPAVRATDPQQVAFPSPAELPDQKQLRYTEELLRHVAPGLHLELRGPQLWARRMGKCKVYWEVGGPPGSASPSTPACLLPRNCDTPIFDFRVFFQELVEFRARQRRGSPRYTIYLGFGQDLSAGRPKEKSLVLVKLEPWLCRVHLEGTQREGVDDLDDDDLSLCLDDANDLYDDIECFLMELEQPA
Strand | log fluorescence [z-score]
AAATTCTGATATAATTCAAAGTGCTAG | 0.13
GTAGAACTGGGGTTTCGATTAGTGCTA | 5.64
TATAATATATATATTGTTAGGTGCTAG | 0.599
CCCTGTCTGTCCAGAAACCCGTGCTAG | 0.0513
TTTCCTTTACATTCCCCATTGTGCTAG | 2.63
TCAATTCTCTGCTTGGGACTGTGCTAG | 0.576
TTAGGTTTCGGGTATCTGTTAGTGCTA | 7.07
TTAGGTACCGGGACTGGGTTAGTGCTA | 0.169
GACAATTTCAGTCTCGAGACGTGCTAG | 0.842
GAAGGTTTCGGACTGGGGACGTGCTAG | 3.52
AACTGCTGCCGTCCACCACTGTGCTAG | -0.5
GACGGTTGCGGGACTGGGGACGTGCTA | -0.413
CAGCCTCTGCATTCCCTCAGGTGCTAG | -0.301
TTAGGTTTCGACTATCGATTAGTGCTA | 6.05
TTGATTGTGGCTTTTTAATGGTGCTAG | -0.462
GACTATATCGGGTATCGAGACGTGCTA | 0.139
TTAGATATAGGGACTGGATTAGTGCTA | -0.0284

Mixed results
Molecule | target | assay | system | conditions | how to read | quantity | value
PhoQ, residues 284 288 289 292 302 303 AGGCYF | PhoP, residues 12 14 15 18 19 TQAIL (Escherichia coli, UniProt P23836) | Sort-seq, item: YFP reporter | E. coli | PhoQ-PhoP variant library, with: 10 µM Mg2+ | baseline: high Mg2+ state, higher = stronger signaling | fold induction | 2.74
